{"data": "Assay results pooled from the literature", "note": "Parts stem from different laboratories: compare values within a part only."}
{"data": "Set 1", "target": "Centromere-binding protein 1, full length, N-terminal tag (CBF1, Saccharomyces cerevisiae, UniProt P17106, residues 1-351)", "method": "protein-binding microarray", "form": "double-stranded DNA, one strand shown", "matrix": "in vitro", "concentration": "0.8 µM", "notes": "whole 60-bp probe, no competitor", "direction": "higher = stronger binding", "all sequences stand within": "… GTCTTGATTCGCTTGACGCTGCTG", "UniProt P17106, sequence (whole entry, looked up)": "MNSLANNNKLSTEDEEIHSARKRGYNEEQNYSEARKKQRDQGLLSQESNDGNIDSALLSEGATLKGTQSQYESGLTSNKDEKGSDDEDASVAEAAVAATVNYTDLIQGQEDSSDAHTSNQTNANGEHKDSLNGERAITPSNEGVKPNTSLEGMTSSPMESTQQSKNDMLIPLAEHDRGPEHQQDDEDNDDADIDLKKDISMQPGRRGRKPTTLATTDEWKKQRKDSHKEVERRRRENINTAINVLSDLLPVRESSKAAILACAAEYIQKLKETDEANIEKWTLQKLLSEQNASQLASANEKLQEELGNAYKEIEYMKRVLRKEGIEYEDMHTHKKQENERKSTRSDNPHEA"}
{"Strand": "TGTACGAAGCTATGTAGTCACGTTATAGTAGTTAGG", "fluorescence intensity [a.u.]": 2500}
{"Strand": "CTAATTATCATATAAGACGTGACAAGATGACATTTC", "fluorescence intensity [a.u.]": 711}
{"Strand": "GAAGATTCAAATAGTCACGTGATCTCTTTTAGATAG", "fluorescence intensity [a.u.]": 61200}
{"Strand": "GAACCACCAGATTATCACGCTATAAATTTTAAATAG", "fluorescence intensity [a.u.]": 682}
{"Strand": "CTATATAAATAATAAAACATCATGTGCATTTTTTTC", "fluorescence intensity [a.u.]": 1860}
{"Strand": "GAACTATTACATTACAACGTGCATATAACAGAATAG", "fluorescence intensity [a.u.]": 681}
{"Strand": "CTAATAAAAAAATGTAACATCATATCTCAATGTTTC", "fluorescence intensity [a.u.]": 519}
{"Strand": "CCTAACTACTATAGTTCACGTGCATAGCTTCGTACA", "fluorescence intensity [a.u.]": 4790}
{"Strand": "CTACCTCTATGAGATTGCGTGCCTCGAATTCTTTTC", "fluorescence intensity [a.u.]": 569}
{"Strand": "GAACTCCTTACGCCGCATGTGATAATATACTGCTAG", "fluorescence intensity [a.u.]": 1310}
{"Strand": "GAATTGGCTTGATCACATGACACGTCGACGATATAG", "fluorescence intensity [a.u.]": 10100}
{"Strand": "CTATTATTGAAAGTGAACGTGATCCAGAACCGCTTC", "fluorescence intensity [a.u.]": 1750}
{"Strand": "GAAATAATGCGTAGTCATGACACATTTCCGATCTAG", "fluorescence intensity [a.u.]": 537}
{"Strand": "CTAAAGAGACAACTTTACATCAGCCTTCATATTTTC", "fluorescence intensity [a.u.]": 511}
{"data": "Set 2", "target": "Histone acetyltransferase KAT6A, both winged helices, GST fusion (KAT6A, Homo sapiens, UniProt Q92794, residues 1-181)", "method": "protein binding microarray", "form": "double-stranded DNA, one strand shown", "matrix": "in vitro", "concentration": "not given", "notes": "8-mer, flanks averaged, mean of 2 arrays, mostly near background", "baseline": "not given", "direction": "higher = stronger binding", "Residues (chain)": "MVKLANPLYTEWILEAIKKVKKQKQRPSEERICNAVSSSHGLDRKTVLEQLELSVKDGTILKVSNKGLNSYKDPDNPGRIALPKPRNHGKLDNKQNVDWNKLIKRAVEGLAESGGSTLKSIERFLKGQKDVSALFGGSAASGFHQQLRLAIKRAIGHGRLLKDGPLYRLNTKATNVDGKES"}
{"Strand": "AGAGAATA", "E-score": -0.0527}
{"Strand": "ATCCTCTG", "E-score": -0.24}
{"Strand": "GGACGCCA", "E-score": 0.076}
{"Strand": "GAATCGCA", "E-score": -0.0316}
{"Strand": "CATGATCG", "E-score": 0.0175}
{"Strand": "ATCTCGTC", "E-score": -0.0466}
{"Strand": "ACGAGTAG", "E-score": 0.107}
{"Strand": "ACCTACAG", "E-score": -0.0683}
{"Strand": "CCGTCTCA", "E-score": 0.152}
{"Strand": "ATCTGGGC", "E-score": -0.0661}
{"Strand": "CCCTGGCA", "E-score": -0.103}
{"Strand": "ACTCGGAA", "E-score": 0.0311}
{"Strand": "AGGTCATA", "E-score": -0.141}
{"Strand": "ATGGGTAC", "E-score": -0.0598}
{"Strand": "CCTCGCAC", "E-score": 0.018}
{"data": "Set 3", "target": "RING finger protein unkempt homolog, zinc fingers 1-6, GST-SBP tag (UNK, Homo sapiens, UniProt Q9C0B0, residues 30-357)", "method": "RNA Bind-n-Seq", "form": "RNA", "matrix": "in vitro", "concentration": "not given", "notes": "RNA with constant flanks, human and mouse sites, ends assumed", "baseline": "input RNA pool", "direction": "higher = stronger binding", "all sequences stand within": "GGGAGUUCUACAGUCCGACGAUC … CAACAGAGGAUUGAGCAUCA", "UniProt Q9C0B0, sequence (30-357, looked up)": "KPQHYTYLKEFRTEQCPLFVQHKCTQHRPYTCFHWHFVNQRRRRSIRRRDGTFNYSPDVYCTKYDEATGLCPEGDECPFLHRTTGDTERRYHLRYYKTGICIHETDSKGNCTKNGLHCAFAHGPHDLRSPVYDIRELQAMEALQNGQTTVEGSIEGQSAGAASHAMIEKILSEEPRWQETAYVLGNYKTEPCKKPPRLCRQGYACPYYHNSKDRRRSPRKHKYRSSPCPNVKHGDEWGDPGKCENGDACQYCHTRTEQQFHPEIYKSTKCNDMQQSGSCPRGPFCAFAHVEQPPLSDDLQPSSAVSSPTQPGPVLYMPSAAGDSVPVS"}
{"Strand": "UCCCAGACUCCAACUCCCAGUUCUACUUUCUUCCAGGCAGAGCUGUGGAUCAAAGAAUUAACUAGUGUUUAUGAUUCUCGAGCACGAGAAAGAUUGCGCCAGAUUGAAGAACAGAAGGCA", "bound/input enrichment": "1.22 ratio"}
{"Strand": "CUGCGCUGUCCGCCCUGCGGGGGAGGAACCCGGAGCACGCAGCAGAGAUGUCAGCUUAUUUAUAGGAAUUGUCCAAAGCCACAGUCAUGGUGGAUGUAGGAAAGUGGCCAAUCUUCACUC", "bound/input enrichment": "1.19 ratio"}
{"Strand": "GACUGGGAAAUGUCACAGUCUUCAAUAAAGAGUUCUAUCUGUCUUCUACGCGGGAAAAUCUAUGAUGCUCUAGAUAACCGAACCCUGGCUACCUACAGCUACAAAGAAGCUUUGAAGCUU", "bound/input enrichment": "0.291 ratio"}
{"Strand": "GGCCUACCUCUUGUUUCUGCCCGGCCCUCUGGCCAGAGCCCUGGCCUGCAAGAGGGACAGAGCCUGGGAGACGCGCACUCCCGUUGGGUUUGAGACAGACACUUUUUAUAUUUACCUCCU", "bound/input enrichment": "0.202 ratio"}
{"Strand": "GAUCCCCUGGAACUGGAAUUACAGACAGUUAUGAGCUGCCAUGAGGGUGCAAGGAAUUAAACCCAGCUCCUCUGGAAGAACAGCUAGUGCUCCUUACUGCCGAGCCACCCUUUAUUGUUU", "bound/input enrichment": "0.212 ratio"}
{"Strand": "AGCAAUGAAAAAGCAGCCCUUCUCCCAGCCCCCUUUUCACUAGGAGACACAAACAUUACAAUAGAAGAGCAAUUAAACUCAAUAAAUUUAUCUUUUCAGGAUGAUCCAGAUUCCAGUACC", "bound/input enrichment": "8.7 ratio"}
{"data": "Set 4", "target": "Interferon regulatory factor 7, full length, phosphomimetic (IRF7, Homo sapiens, UniProt Q92985, residues 1-503, S101K/S471D/S472D/S475D/S476D/S477D/S483D/S484D/S487D)", "method": "protein-binding microarray", "form": "double-stranded DNA, one strand shown", "matrix": "in vitro", "concentration": "250 nM", "notes": "60-bp whole probe", "added": "salmon DNA 0.4 mg/ml", "baseline": "random background probes", "direction": "higher = stronger binding", "all sequences stand within": "GCCTAGCAC … GTCTTGATTCGCTTGACGCTGCTG", "UniProt Q92985, sequence (whole entry, unmodified, looked up)": "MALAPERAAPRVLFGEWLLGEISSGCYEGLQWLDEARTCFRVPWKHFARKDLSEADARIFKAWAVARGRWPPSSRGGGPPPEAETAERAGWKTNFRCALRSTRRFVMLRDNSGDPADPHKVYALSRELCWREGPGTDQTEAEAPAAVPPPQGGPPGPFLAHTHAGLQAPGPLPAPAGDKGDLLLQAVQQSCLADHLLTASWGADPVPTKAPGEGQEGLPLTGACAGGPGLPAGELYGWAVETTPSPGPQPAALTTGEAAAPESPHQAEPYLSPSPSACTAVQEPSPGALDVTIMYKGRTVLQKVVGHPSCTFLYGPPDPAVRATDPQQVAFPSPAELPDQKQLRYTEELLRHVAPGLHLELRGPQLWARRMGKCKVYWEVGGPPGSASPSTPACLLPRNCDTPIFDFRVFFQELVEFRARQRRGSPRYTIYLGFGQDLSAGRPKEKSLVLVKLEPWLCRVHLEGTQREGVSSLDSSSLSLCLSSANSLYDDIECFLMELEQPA"}
{"Strand": "GAAGATATCGGGTTTCGAGACGTGCTA", "log fluorescence": "3.03 z-score"}
{"Strand": "TTAGATCTCAGATTCGATTAGTGCTAG", "log fluorescence": "2.59 z-score"}
{"Strand": "GACGAACTGGGGTATCGCGACGTGCTA", "log fluorescence": "-0.604 z-score"}
{"Strand": "GACCGACTGGGGTTTCGGGACGTGCTA", "log fluorescence": "1.42 z-score"}
{"Strand": "GACGATTTCGGGGATCGAGACGTGCTA", "log fluorescence": "0.302 z-score"}
{"Strand": "CTTTATTTAAGCTCCTATCTTGTGCTA", "log fluorescence": "0.67 z-score"}
{"Strand": "CTAGGTCTCCTACTGCTTTAGTGCTAG", "log fluorescence": "-0.03 z-score"}
{"Strand": "CTTTAACTCATTTTCATTTTGTGCTAG", "log fluorescence": "1.91 z-score"}
{"Strand": "GACGATAACAGACTGGAGACGTGCTAG", "log fluorescence": "-0.419 z-score"}
{"Strand": "AAGTGTTTCTCAACCAGTTTGTGCTAG", "log fluorescence": "0.328 z-score"}
{"Strand": "GACGATATCAGTCTCGCGACGTGCTAG", "log fluorescence": "-0.191 z-score"}
{"Strand": "TCATGTCTTAGATTCCTACTGTGCTAG", "log fluorescence": "0.622 z-score"}
{"Strand": "GACGGTTTCGATATCGGGACGTGCTAG", "log fluorescence": "12.1 z-score"}
{"data": "Set 5", "target": "UBE2J2 UBC core domain (UniProt Q8N2K1)", "method": "yeast two-hybrid", "matrix": "yeast", "notes": "mostly zero background", "baseline": "not given", "direction": "higher = stronger interaction", "B1": "RNF130 RING domain (UniProt Q86XS8); chain DKETDPDFDHCAVCIESYKQNDVVRILPCKHVFHKSCVDPWLSEHCTCPMCKLNILKALGIV", "B2": "TRIM28 RING domain (UniProt Q13263); chain GAEALELLEHCGVCRERLRPEREPRLLPCLHSACSACLGPAAPAAANSSGDGGAAGDGTVVDCPVCKQQCFSKDIVE", "B3": "RMND5B RING domain (UniProt Q96G75); chain MKCWYHSVFACPILRQQTSDSNPPIKLICGHVISRDALNKLINGGKLKCPYCPMEQNPADGK", "B4": "RNF7 RING domain (UniProt Q9UBF6); chain AICRVQVMDACLRCQAENKQEDCVVVWGECNHSFHNCCMSLWVKQNNRCPLCQQDWVVQRIGK", "B5": "TRIM68 RING domain (UniProt Q6AZZ1); chain LVEAIVEEVACPICMTFLREPMSIDCGHSFCHSCLSGLWEIPGESQNWGYTCPLCRAPVQPRNLRP", "B6": "TRIM74 RING domain (UniProt Q86UV6); chain SLLELEDWLQCPICLEVFKESLMLQCGHSYCKGCLVSLSYHLDTKVRCPMCWQVVDGSSSLP", "UniProt Q8N2K1, sequence (whole entry, looked up)": "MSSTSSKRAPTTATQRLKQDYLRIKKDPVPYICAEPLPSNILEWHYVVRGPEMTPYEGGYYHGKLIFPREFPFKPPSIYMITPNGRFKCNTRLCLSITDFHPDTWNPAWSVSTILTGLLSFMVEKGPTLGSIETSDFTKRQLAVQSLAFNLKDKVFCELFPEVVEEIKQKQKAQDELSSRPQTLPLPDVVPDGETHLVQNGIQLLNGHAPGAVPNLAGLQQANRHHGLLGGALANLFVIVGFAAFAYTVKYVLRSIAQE"}
{"Sequence": "FLSKVEETFQCICCQELVFRPITTVCQHNVCKDCLDRSFRAQVFSCPACRYDLGRSYAMQ (UHRF1 RING domain (UniProt Q96T88))", "lacZ reporter activity": 0}
{"Sequence": "B1 (RNF130 RING domain)", "lacZ reporter activity": 0}
{"Sequence": "GSEEEEIPFRCFICRQAFQNPVVTKCRHYFCESCALEHFRATPRCYICDQPTGGIFNPA (RNF113B RING domain (UniProt Q8IZP6))", "lacZ reporter activity": 6750}
{"Sequence": "B2 (TRIM28 RING domain)", "lacZ reporter activity": 0}
{"Sequence": "B3 (RMND5B RING domain)", "lacZ reporter activity": 2970}
{"Sequence": "B4 (RNF7 RING domain)", "lacZ reporter activity": 0}
{"Sequence": "B5 (TRIM68 RING domain)", "lacZ reporter activity": 0}
{"Sequence": "B6 (TRIM74 RING domain)", "lacZ reporter activity": 0}
